{"data": "Experimental data gathered from unrelated publications", "note": "A part holds a random share of what one study measured.", "sequence of UniProt Q05940 (whole entry, looked up)": "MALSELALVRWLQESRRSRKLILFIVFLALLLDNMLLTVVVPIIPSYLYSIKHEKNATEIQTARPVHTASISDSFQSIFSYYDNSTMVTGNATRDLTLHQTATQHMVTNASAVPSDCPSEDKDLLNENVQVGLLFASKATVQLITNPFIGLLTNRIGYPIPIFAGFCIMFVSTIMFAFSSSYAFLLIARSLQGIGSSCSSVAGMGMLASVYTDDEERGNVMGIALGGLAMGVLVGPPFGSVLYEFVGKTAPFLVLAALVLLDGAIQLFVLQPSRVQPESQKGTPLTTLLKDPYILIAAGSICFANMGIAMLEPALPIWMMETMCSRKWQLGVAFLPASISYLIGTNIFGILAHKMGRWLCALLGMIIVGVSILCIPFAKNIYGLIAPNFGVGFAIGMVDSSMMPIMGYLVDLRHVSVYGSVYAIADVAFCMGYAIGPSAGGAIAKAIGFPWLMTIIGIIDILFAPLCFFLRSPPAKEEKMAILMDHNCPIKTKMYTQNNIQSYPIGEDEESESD"}
{"data": "Set 1", "target": "PABPC1L2, full length, GST fusion (mouse, UniProt A0ABA7IW68)", "method": "RNAcompete", "molecule type": "RNA", "sample": "in vitro", "tested at": "20 nM", "notes": "7-mer, probes averaged, single round", "baseline": "mean of 7-mers", "direction": "higher = stronger binding", "Residues (chain)": "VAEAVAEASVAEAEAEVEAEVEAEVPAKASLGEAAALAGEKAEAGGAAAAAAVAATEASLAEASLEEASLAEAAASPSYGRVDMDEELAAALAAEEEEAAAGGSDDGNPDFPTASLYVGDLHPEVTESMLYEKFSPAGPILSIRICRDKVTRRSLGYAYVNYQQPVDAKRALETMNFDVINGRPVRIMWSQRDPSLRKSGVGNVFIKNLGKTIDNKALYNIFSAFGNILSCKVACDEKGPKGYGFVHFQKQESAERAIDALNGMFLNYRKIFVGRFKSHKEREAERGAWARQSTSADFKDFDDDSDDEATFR"}
{"Sequence": "AGUAGCA", "7-mer Z-score": -0.0228}
{"Sequence": "UCUUUUC", "7-mer Z-score": -0.362}
{"Sequence": "CGGUGUA", "7-mer Z-score": -0.0935}
{"Sequence": "GAGGAUU", "7-mer Z-score": -0.173}
{"Sequence": "UACAUUA", "7-mer Z-score": -0.103}
{"Sequence": "AAAGUAG", "7-mer Z-score": 1.88}
{"Sequence": "UUAUUAG", "7-mer Z-score": -0.117}
{"Sequence": "ACUAACU", "7-mer Z-score": -0.0246}
{"data": "Set 2", "target": "Ras GTPase-activating protein-binding protein 1, full length (G3BP1, Homo sapiens, UniProt Q13283)", "method": "RNA Bind-n-Seq", "molecule type": "RNA", "sample": "in vitro", "tested at": "200 nM", "notes": "whole 134-nt RNA, ends assumed", "together with": "150 mM KCl", "baseline": "input library", "direction": "higher = stronger binding", "constant ends, left off below": "GGGAGUUCUACAGUCCGACGAUC … UGGAAUUCUCGGGUGUCAAGG", "sequence of UniProt Q13283 (whole entry, looked up)": "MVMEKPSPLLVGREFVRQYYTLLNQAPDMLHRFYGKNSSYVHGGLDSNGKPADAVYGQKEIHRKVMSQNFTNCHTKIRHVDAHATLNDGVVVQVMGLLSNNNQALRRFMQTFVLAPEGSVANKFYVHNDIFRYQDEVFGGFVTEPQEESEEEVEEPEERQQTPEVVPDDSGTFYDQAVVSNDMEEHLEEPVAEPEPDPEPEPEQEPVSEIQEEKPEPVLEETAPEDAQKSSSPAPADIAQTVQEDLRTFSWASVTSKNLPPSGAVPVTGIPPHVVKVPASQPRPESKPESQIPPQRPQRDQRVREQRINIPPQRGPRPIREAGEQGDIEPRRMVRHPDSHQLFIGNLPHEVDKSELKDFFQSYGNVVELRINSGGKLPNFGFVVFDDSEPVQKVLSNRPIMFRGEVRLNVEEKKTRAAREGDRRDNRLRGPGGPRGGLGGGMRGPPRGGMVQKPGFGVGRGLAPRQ"}
{"Sequence": "UCCUGUGCUACACAUCGUAUGUACCGAAUCGGGGUUUUUGGUUUUUGGGGUUUUUGGGGAAAGUAUUAUGUUACGCCGUUCGGAUCUGCA", "log2 enrichment": -0.0606}
{"Sequence": "CACAGACAACACGCACCCACACAGACACAGAGGGAAGGGGUUGGGAUGGGGACAGGGUGCACCGCAGGGCGGGGUAGGACCCCAGCCCCU", "log2 enrichment": 1.87}
{"Sequence": "UGACUUUAGAGGAGGAUCUGAUGGAUAUGGCAGUGGACGUGGAUUUGGGGAUGGCUAUAAUGGGUAUGGAGGAGGACCUGGAGGUGGCAA", "log2 enrichment": 0.426}
{"Sequence": "UAACUUUAGAGGAGGAUCUGAUGGAUAUGGCAGUGGACGUGGAUUUGGGGAUGGCUAUAAUGGGUAUGGAGGAGGACCUGGAGGUGUCAA", "log2 enrichment": 0.0161}
{"Sequence": "CUCAAGUCCUGUGCUACACAUCGUAUGUACCGAAUCGGGGUGGGUGGGGUGGGGAAAGUAUUAUGUUACGCCGUUCGGAUCUGCACUUCC", "log2 enrichment": 0.0452}
{"Sequence": "GUCCUGUGCUACACAUCGUAUGUACCGAAUCGGGGAAAGGGGUUUUUUUGGGGUGGGGAAAGUAUUAUGUUACGCCGUUCGGAUCUGCAC", "log2 enrichment": 0.519}
{"Sequence": "UUUCUCCAAGGACAUCAAGGUGCCCAAGAGCCGCUACCUGGGCUACAUCAAGGACUACGAGGGAGCGACGCUGAUGGAGUGUGAGCUGAA", "log2 enrichment": -1.02}
{"Sequence": "CCUGUGCUACACAUCGUAUGUACCGAAUCGGGGUUUUUGGGGAAAGGGGAAAAAAAGGGGAAAGUAUUAUGUUACGCCGUUCGGAUCUGC", "log2 enrichment": 0.189}
{"data": "Set 3", "target": "Histone acetyltransferase KAT6A, winged helix 2, GST fusion (KAT6A, Homo sapiens, UniProt Q92794, residues 85-181)", "method": "protein binding microarray", "molecule type": "double-stranded DNA, one strand shown", "sample": "in vitro", "tested at": "not given", "notes": "8-mer, flanks averaged, mean of 2 arrays, mostly near background", "baseline": "not given", "direction": "higher = stronger binding", "Construct (chain)": "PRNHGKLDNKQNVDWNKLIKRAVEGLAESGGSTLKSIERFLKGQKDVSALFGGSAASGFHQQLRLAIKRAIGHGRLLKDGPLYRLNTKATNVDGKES"}
{"Sequence": "CCTCATAA", "E-score": -0.0785}
{"Sequence": "AGCATTAA", "E-score": -0.0844}
{"Sequence": "ATTGTTCA", "E-score": 0.0976}
{"Sequence": "CTTTTTTA", "E-score": -0.0575}
{"Sequence": "ACCCAGAT", "E-score": 0.0174}
{"Sequence": "GCTTTACC", "E-score": -0.184}
{"Sequence": "CCCATATA", "E-score": -0.224}
{"Sequence": "CTTGGTTC", "E-score": 0.119}
{"data": "Further values, each from its own experiment"}
{"Compound": "CN(C)C(=N)N=C(N)N", "target": "Synaptic vesicular amine transporter (SLC18A2, Homo sapiens, UniProt Q05940)", "mode": "inhibitor", "notes": "literature data", "quantity": "IC50", "value": "> 10 µM"}
{"note": "Some of these lines once more (set 2):"}
{"Sequence": "UGACUUUAGAGGAGGAUCUGAUGGAUAUGGCAGUGGACGUGGAUUUGGGGAUGGCUAUAAUGGGUAUGGAGGAGGACCUGGAGGUGGCAA", "log2 enrichment": 0.426}
{"Sequence": "UAACUUUAGAGGAGGAUCUGAUGGAUAUGGCAGUGGACGUGGAUUUGGGGAUGGCUAUAAUGGGUAUGGAGGAGGACCUGGAGGUGUCAA", "log2 enrichment": 0.0161}
